Assay results from different studies.
Lines come from different studies, so protocols differ. ± gives the spread as reported. Primed or numbered codes have the meaning given here. Where no end group is shown, it is not given here. No end group written: not given here. [ ]: non-standard residue; d: D form.
B1: LAIR1 extracellular domain 22-165 (Homo sapiens, UniProt Q6GTX8); sequence looked up; chain QEEDLPRPSISAEPGTVIPLGSHVTFVCRGPVGVQTFRLERDSRSTYNDTEDVSQASPSESEARFRIDSVREGNAGLYRCIYYKPPKWSEQSDYLELLVKESSGGPDSPDTEPGSSAGPTQRPSDNSHNEHAPASQGLKAEHLY
B2: metQ residues 17-271 (Escherichia coli); chain SLALVGCGQDEKDPNHIKVGVIVGAEQQVAEVAQKVAKDKYGLDVELVTFNDYVLPNEALSKGDIDANAFQHKPYLDQQLKDRGYKLVAVGNTFVYPIAGYSKKIKSLDELQDGSQVAVPNDPTNLGRSLLLLQKVGLIKLKDGVGLLPTVLDVVENPKNLKIVELEAPQLPRSLDDAQIALAVINTTYASQIGLTPAKDGIFVEDKESPYVNLIVTREDNKDAENVKKFVQAYQSDEVYEAANKVFNGGAVKGW
B3: MYBPC3 1-95 (Homo sapiens, UniProt Q14896); sequence looked up; chain MPEPGKKPVSAFSKKPRSVEVAAGSPAVFEAETERAGVKVRWQRGGSDISASNKYGLATEGTRHTLTVREVGPADQGSYAVIAGSSKVKFDLKVI
B4: BNR1 1288-1375 (Saccharomyces cerevisiae, UniProt P40450); sequence looked up; chain LDMRTSSNKKSNGSDENDGEKVNRDAVDLLISKLREVKKDPEPLRRRKSTKLNEIAINVHEGDVKTRKDEDHVLLERTHAMLNDIQNI
B5: Apoa5 (Mus musculus, UniProt Q8C7G5); sequence looked up; chain RKSLWDYFSQNSWSKGVMGQPQKLAQENLKGSFEQDLYNMNNYLEKLGPLRGPGKEPPLLAQDPEGIRKQLQQELGEVSSRLEPYMAAKHQQVGWNLEGLRQQLKPYTAELMEQVGLSVQELQEQLRVVGEDTKAQLLGGVDEALNLLQDMQSRVLHHTDRVKELFHPYAERLVTGIGHHVQELHRSVAPHAAASPARLSRCVQTLSHKLTRKAKDLHTSIQRNLDQLRDELSAFIRVSTDGAEDGDSLDPQALSEEVRQRLQAFRHDTYLQIAAFTQAIDQETEEIQHQLAPPPPSHSAFAPELGHSDSNKALSRLQSRLDDLWEDIAYGLQDQGHSHLSDPEGHSG
B6: Sema6a 19-571 I322E (Mus musculus, UniProt O35464); chain GFPEDSEPISISHGNYTKQYPVFVGHKPGRNTTQRHRLDIQMIMIMNRTLYVAARDHIYTVDIDTSHTEEIYCSKKLTWKSRQADVDTCRMKGKHKDECHNFIKVLLKKNDDTLFVCGTNAFNPSCRNYRVDTLETFGDEFSGMARCPYDAKHANIALFADGKLYSATVTDFLAIDAVIYRSLGDSPTLRTVKHDSKWLKEPYFVQAVDYGDYIYFFFREIAVEYNTMGKVVFPRVAQVCKNDMGGSQRVLEKQWTSFLKARLNCSVPGDSHFYFNILQAVTDVIRINGRDVVLATFSTPYNSEPGSAVCAYDMLDIANVFTGRFKEQKSPDSTWTPVPDERVPKPRPGCCAGSSSLEKYATSNEFPDDTLNFIKTHPLMDEAVPSIINRPWFLRTMVRYRLTKIAVDNAAGPYQNHTVVFLGSEKGIILKFLARIGSSGFLNGSLFLEEMNVYNPEKCSYDGVEDKRIMGMQLDRASGSLYVAFSTCVIKVPLGRCERHGKCKKTCIASRDPYCGWVRESGSCAHLSPLSRLTFEQDIERGNTDGLGDCHNS
B7: HSPB5 (Homo sapiens, UniProt P02511); sequence looked up; chain MDIAIHHPWIRRPFFPFHSPSRLFDQFFGEHLLESDLFPTSTSLSPFYLRPPSFLRAPSWFDTGLSEMRLEKDRFSVNLDVKHFSPEELKVKVLGDVIEVHGKHEERQDEHGFISREFHRKYRIPADVDPLTITSSLSSDGVLTVNGPRKQVSGPERTIPITREEKPAVTAAPKK
Sequence of UniProt O15392 (whole entry, looked up): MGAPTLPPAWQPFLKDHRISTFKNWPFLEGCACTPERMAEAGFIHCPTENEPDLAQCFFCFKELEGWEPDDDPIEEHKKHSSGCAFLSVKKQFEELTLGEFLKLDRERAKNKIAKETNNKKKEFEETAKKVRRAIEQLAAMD
Sequence of UniProt P43597 (whole entry, looked up): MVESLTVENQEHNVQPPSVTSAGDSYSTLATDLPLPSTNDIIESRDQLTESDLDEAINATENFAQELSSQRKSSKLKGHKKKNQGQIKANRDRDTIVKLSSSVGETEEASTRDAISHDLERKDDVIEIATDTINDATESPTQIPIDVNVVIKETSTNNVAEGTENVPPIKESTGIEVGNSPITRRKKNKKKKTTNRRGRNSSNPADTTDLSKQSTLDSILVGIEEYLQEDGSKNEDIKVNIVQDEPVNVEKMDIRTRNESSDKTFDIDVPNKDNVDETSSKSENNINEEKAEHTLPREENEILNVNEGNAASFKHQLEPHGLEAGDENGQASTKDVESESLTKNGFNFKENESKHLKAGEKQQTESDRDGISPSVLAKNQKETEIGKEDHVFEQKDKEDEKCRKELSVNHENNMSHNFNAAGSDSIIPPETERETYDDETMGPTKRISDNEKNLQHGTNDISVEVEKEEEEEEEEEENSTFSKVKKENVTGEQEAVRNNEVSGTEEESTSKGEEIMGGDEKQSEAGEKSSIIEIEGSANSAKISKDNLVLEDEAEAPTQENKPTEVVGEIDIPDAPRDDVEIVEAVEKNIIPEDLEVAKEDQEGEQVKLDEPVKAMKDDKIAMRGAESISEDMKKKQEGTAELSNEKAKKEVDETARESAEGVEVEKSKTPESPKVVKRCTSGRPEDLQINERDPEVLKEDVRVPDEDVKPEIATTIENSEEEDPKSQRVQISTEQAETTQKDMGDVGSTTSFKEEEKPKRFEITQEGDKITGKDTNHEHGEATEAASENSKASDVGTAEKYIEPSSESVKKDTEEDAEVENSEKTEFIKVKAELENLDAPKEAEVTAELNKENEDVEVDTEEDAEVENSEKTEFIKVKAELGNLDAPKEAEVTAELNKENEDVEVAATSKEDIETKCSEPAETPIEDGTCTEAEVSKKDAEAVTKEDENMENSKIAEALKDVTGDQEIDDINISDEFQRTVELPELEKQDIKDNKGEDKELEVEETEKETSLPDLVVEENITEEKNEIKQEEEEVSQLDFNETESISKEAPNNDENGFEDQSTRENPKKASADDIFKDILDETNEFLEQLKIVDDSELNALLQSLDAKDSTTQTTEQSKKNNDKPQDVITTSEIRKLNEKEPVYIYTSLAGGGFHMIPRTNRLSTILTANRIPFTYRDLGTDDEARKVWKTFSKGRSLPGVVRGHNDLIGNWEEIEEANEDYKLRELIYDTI
Sequence of UniProt O95817 (whole entry, unmodified, looked up): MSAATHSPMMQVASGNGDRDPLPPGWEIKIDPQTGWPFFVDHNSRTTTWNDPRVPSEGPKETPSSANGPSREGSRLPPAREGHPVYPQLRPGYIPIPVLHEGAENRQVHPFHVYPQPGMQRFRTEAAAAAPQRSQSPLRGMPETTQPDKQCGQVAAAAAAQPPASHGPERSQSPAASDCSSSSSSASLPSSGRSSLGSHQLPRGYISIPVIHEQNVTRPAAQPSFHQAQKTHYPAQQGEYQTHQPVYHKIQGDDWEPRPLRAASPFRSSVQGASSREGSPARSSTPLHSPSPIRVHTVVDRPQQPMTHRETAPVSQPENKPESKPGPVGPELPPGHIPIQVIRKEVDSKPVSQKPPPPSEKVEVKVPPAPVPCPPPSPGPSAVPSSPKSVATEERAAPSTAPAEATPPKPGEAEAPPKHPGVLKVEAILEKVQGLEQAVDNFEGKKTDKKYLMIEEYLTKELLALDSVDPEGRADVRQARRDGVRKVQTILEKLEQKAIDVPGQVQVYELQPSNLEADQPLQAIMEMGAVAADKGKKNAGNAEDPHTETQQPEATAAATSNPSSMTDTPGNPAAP
Sequence of UniProt P26447 (whole entry, looked up): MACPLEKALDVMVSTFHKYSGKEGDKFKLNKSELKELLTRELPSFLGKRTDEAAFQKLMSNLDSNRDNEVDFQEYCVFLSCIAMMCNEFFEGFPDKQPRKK
Sequence of UniProt P70207 (whole entry, unmodified, looked up): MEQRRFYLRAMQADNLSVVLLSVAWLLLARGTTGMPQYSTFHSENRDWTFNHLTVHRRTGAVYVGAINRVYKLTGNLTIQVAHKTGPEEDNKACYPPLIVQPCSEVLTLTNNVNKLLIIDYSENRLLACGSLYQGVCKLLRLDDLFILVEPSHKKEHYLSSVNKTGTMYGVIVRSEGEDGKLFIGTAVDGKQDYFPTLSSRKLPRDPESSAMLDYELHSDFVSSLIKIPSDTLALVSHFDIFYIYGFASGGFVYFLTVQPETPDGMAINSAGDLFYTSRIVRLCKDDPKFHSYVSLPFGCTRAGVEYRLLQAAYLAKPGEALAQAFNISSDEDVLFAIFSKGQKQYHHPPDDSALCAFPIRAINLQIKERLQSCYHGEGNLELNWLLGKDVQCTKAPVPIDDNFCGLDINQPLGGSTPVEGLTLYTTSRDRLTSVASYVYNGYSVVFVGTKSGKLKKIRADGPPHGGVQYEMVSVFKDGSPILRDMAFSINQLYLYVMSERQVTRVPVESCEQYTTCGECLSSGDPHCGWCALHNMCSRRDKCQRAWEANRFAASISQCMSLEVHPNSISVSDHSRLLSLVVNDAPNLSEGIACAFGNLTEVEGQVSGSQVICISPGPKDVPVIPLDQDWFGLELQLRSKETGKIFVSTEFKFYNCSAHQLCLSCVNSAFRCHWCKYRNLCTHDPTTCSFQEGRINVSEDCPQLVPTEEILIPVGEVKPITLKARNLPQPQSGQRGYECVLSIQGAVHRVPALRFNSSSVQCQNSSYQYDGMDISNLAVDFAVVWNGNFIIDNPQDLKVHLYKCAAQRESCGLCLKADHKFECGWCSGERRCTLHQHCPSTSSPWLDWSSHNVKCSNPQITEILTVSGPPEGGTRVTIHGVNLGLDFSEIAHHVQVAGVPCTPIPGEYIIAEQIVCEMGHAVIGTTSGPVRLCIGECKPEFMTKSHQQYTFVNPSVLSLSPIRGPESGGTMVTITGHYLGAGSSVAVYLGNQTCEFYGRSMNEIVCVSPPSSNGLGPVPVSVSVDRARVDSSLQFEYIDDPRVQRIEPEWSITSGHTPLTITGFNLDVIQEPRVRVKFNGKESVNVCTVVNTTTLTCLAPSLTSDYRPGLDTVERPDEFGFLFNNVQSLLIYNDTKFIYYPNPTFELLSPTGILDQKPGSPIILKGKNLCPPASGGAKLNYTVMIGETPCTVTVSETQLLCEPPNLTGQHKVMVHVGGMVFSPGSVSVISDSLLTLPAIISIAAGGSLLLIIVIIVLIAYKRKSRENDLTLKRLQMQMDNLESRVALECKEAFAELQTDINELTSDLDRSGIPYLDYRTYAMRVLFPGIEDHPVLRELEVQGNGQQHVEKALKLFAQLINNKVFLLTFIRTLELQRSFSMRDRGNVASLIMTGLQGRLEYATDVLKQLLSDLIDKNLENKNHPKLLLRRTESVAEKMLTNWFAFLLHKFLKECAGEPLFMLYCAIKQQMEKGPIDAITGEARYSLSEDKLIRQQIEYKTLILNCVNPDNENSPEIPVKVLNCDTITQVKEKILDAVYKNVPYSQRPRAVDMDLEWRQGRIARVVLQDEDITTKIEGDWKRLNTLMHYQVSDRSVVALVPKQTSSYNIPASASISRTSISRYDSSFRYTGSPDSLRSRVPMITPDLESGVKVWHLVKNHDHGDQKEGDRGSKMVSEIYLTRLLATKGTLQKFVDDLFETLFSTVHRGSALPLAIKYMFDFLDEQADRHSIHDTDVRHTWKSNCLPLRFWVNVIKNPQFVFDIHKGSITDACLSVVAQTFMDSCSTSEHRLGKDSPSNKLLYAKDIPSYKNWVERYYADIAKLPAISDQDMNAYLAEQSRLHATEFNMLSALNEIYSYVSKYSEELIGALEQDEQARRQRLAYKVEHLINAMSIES
Sequence of UniProt O60656 (whole entry, looked up): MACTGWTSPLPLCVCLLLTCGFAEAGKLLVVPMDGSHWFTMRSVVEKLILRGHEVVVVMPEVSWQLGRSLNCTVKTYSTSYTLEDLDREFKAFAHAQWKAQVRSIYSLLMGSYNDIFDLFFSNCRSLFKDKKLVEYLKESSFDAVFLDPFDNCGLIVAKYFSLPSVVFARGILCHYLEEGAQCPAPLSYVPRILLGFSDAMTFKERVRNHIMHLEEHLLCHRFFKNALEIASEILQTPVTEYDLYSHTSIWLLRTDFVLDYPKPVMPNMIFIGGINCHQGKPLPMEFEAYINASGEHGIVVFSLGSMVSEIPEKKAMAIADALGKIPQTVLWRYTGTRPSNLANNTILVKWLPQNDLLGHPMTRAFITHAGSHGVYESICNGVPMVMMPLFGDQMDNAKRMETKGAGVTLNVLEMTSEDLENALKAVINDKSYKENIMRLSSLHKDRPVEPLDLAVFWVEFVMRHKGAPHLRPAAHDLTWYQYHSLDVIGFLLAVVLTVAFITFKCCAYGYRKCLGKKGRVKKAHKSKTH
Sequence of UniProt Q8NHJ6 (whole entry, looked up): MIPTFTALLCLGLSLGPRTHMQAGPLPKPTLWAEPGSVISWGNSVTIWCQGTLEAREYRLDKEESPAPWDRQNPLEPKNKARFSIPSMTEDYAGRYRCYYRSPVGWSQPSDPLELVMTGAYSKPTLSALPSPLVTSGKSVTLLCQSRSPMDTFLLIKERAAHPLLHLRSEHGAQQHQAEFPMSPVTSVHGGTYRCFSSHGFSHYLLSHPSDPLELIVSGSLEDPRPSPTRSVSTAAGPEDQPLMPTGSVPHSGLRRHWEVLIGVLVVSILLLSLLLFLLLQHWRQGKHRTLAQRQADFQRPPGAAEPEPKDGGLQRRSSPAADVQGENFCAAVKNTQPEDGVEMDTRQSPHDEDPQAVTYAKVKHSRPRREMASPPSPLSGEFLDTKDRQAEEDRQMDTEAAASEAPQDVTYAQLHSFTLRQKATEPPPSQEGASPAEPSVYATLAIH

Molecule	tested on	assay	system	setting	measurement	result
B1	LILRB4 extracellular domain 22-259 (Homo sapiens, UniProt Q8NHJ6)	SPR		37 °C, equilibrium fit	Kd	> 200 µM
histone H3 fragment, K36me2 (sequence not shown)	MORF4L1 fragment (Homo sapiens)	NMR titration		pH 7.5, 25 °C	Kd	1140 ± 390 µM
proNGF residues -121 to 118 three furin sites to alanine (Mus musculus)	SORT1 extracellular region 34-725 (Homo sapiens, UniProt Q99523)	SPR		25 °C	Kd	0.77 µM
TKDELTKIMDRASKIEQIQKLAKYAISALNYEDLPTAKDELTKALDLLNSI (VTA1 280-330 (Saccharomyces cerevisiae, UniProt Q06263); sequence looked up)	VPS4 299-415 H359D (Saccharomyces cerevisiae, UniProt P52917)	SPR		pH 7.0, NaCl 150 mM, equilibrium fit	Kd	280 ± 12 µM
B2 (metQ residues 17-271)	metN/metI E166Q (Escherichia coli)	MST		pH 8.5, 25 °C, NaCl 100 mM, with: ATP 1 mM	Kd	1.1 ± 0.3 µM
EGPIALKFSHLCLEDHNSYCINGACAFHHELEKAICRCFTGYTGERCEHLTLTSYAVDSY (EPGN EGF domain 49-109 (Homo sapiens))	EGFR 25-525 (Homo sapiens, UniProt P00533)	ITC		pH 8.0, 4 °C, NaCl 150 mM, single-site model	Kd	2.8 µM
B3 (MYBPC3 1-95)	MYH7/MYL2 MYH7 806-963	ITC			Kd	3.2 ± 1.7 µM
Tigit fragment (Mus musculus)	Pvr/IgG1 Fc Fc fusion, extracellular domain (Mus musculus)	SPR		avidity, bivalent analyte model	Kd	1.29 µM
S100A4, S-glutathionylated, QSY 35 on amines (Homo sapiens, UniProt P26447)	SRXN1 C99S, Alexa 546 label (Homo sapiens)	FRET		apparent, with Ca2+, with: Ca2+	Kd	0.021 µM
SGRGK(Ac)GGKGL (histone H4 residues 1-10; acetylated K5)	ATAD2 bromodomain 981-1108, Cys1057-Cys1079 disulfide (Homo sapiens, UniProt Q6PL18)	ITC	peptide	pH 7.0, 5 °C, NaCl 150 mM	Kd	91.4 µM
ribosomes whole ribosome (Rattus norvegicus)	CRIP3 active 22-286 del163-164/del167-189 (Zea mays, UniProt P28522)	SPR	ribosomes		Kd	0.00633 ± 0.00073 µM
{5FAM′}-DDTSRMEAVD (HSP90AA1 723-732 E730A (UniProt P07900); N-terminal 5-FAM; 5FAM′ = 5-carboxyfluorescein; sequence looked up)	STUB1 (Homo sapiens, UniProt Q9UNE7)	fluorescence polarisation	peptide	pH 7.4, 25 °C, with: 5-Fam tracer 20 nM	Kd	1.7 ± 0.24 µM
Il2rg extracellular domain (Mus musculus) (sequence not shown)	Il2rb fragment (Mus musculus)	SPR		25 °C, monomeric form, single-site fit	Kd	695 ± 76 µM
KVGFFKRNRPPLEEDDEEGE (ITGA2B 989-1008 (Homo sapiens))	Myom1 fragment (Mus musculus)	SPR	peptide	two-state model	Kd	248 µM
B4 (BNR1 1288-1375)	AIP5 1110-1233, Alexa 488 label (Saccharomyces cerevisiae, UniProt P43597)	fluorescence polarisation		30 nM, pH 7.4, NaCl 150 mM, Hill fit	Kd	0.237 ± 0.043 µM
B5 (Apoa5)	ANGPTL3/ANGPTL8	SPR		pH 7.4, 25 °C, NaCl 150 mM, with: CaCl2 4 mM	Kd	0.00053 µM
B6 (Sema6a 19-571 I322E)	PlxnA2 35-703 (Mus musculus, UniProt P70207)	SPR		pH 7.5, 25 °C, NaCl 150 mM, equilibrium, monovalent	Kd	1.3 µM
B7 (HSPB5)	BAG3 del87-101/del200-213 (UniProt O95817)	flow cytometry		apparent	Kd	> 50 µM
UGT1A9 (Homo sapiens, UniProt O60656)	CN1CC[C@H](c2c(O)cc(O)c3c(=O)cc(-c4ccccc4Cl)oc23)[C@H](O)C1	steady-state kinetics		pH 7.4, 37 °C	Vmax	0.000219 µmol/min/mg
ART[Lys(Me2)]QTARKSTG (histone H3 2-13 (UniProt P68431); K4me2; Lys(Me2) = CN(C)CCCC[C@H](N)C(=O)O; sequence looked up)	BIRC5 1-142 (Homo sapiens, UniProt O15392)	ITC	peptide	pH 7.2	Kd	12 ± 0.8 µM
